Measured values gathered from unrelated publications.
Several values in a cell are separate wells, animals, samples, runs or records. ± marks the error that the study gave.

Structure (SMILES)	target or system	test	test system	conditions	scale	endpoint	result
CC(=O)[O-].O.O.O.O.[Ni+2].[O-]c1ccc(Br)cc1C=NCCN1CCOCC1		nitric oxide scavenging		80 µM		inhibition	19.8%
CCCCCc1ccc(S(=O)(=O)N2CC2C(=O)OC)cc1 (stereo not shown)			mouse, Lewis lung carcinoma	intraperitoneal, 5 mg/kg, 16 doses, day 10		tumour volume	189 mm3
C[C@@H]1CN(c2ccnc(C(=O)N[C@H]3C[C@@H]3c3ccccc3)c2)CC[C@@H]1O			female heterozygous Slc6a8 P549L mice, left brain hemisphere	oral, 30 mg/kg twice daily, 8 h		brain creatine level	1190 µg/mL and 1280 µg/mL and 1200 µg/mL
O=Cc1cc(OCc2ccccc2)ccc1B(O)O		HPLC-MS		pH 10.2, added: 50 mM N-α-acetyl-lysine		pseudo-first-order rate constant	0.1 h⁻¹
O=[N+]([O-])c1cc(Br)cc([N+](=O)[O-])c1NS(=O)(=O)c1ccc(Br)cc1		RNA-seq, measured: AT1G02920	Arabidopsis thaliana Col seedlings	dose not given	reference: DMSO	log2 fold change	2.33
COc1ccc(C(=O)CCc2cc(C(CCc3ccc(O)cc3OC)c3ccc(O)cc3)c(O)cc2OC)cc1 (racemic)			human blood	1 µM, added: A23187		arachidonic acid level	100000 ± 9130 pg/mL
CC(C)C[C@H](NC(=O)CNC(=O)[C@H](CCC(N)=O)NC(=O)[C@H](CC(C)C)NC(=O)[C@H](CC(C)C)NC(=O)[C@H](CCCNC(=N)N)NC(=O)[C@H](CCC(N)=O)NC(=O)[C@H](CC(C)C)NC(=O)[C@H](CCCNC(=N)N)NC(=O)[C@H](C)NC(=O)CNC(=O)[C@H](CCC(=O)O)NC(=O)[C@H](CCCNC(=N)N)NC(=O)[C@H](CC(C)C)NC(=O)[C@H](CCCNC(=N)N)NC(=O)[C@H](CO)NC(=O)[C@H](CC(C)C)NC(=O)[C@H](CCC(=O)O)NC(=O)[C@H](CO)NC(=O)[C@@H](NC(=O)[C@H](Cc1ccccc1)NC(=O)[C@@H](NC(=O)CNC(=O)[C@H](CC(=O)O)NC(=O)C(C)(C)NC(=O)[C@@H](N)Cc1c[nH]cn1)[C@@H](C)O)[C@@H](C)O)C(=O)N[C@@H](CC(C)C)C(=O)N[C@@H](CCC(N)=O)C(=O)NCC(=O)N[C@@H](CC(C)C)C(=O)N[C@H](C(=O)NCC(=O)N[C@@H](CCCCNC(=O)COCCOCCNC(=O)COCCOCCNC(=O)CC[C@H](NC(=O)CCCCCCCCCCCCCCCCC(=O)O)C(=O)O)C(N)=O)C(C)C		indirect calorimetry	DIO C57BL/6J mice	sc, 300 nmol/kg twice daily, throughout 8 days		energy expenditure	increased
COc1cc(O)ccc1CCC(c1ccc(O)cc1)c1cc2c(c(C)c1O)OC(c1ccc(O)cc1)CC2 (mixture of isomers)		measured: LTB4	human whole blood	3 µM, added: Escherichia coli		amount	4500 ± 1700 pg/mL blood
CCC(=O)N(CC#N)S(=O)(=O)c1ccc(C)cc1		HPLC-MS		pH 10.2, added: 50 mM N-α-acetyl-lysine		pseudo-first-order rate constant	50 h⁻¹
COC1OC(C)C(OC2OC(C)C(OS(=O)(=O)O)C(OS(=O)(=O)O)C2O)C(OS(=O)(=O)O)C1O (stereo not shown)			human plasma	128 µg/mL	reference: control	APTT prolongation	1 fold
COc1ccc(NC(=O)c2ccc3[nH]c(-c4ccc(N(C)C)cc4)nc3c2)cn1			Lewis lung carcinoma, mice, syngeneic graft, subcutaneous	intraperitoneal, 25 mg/kg daily, day 10		tumour volume	1500 mm3 and 1060 mm3 and 862 mm3 and 1590 mm3 and 961 mm3
COC1OC(C)C(OC2OC(C)C(O)C(OC3OC(C)C(OC4OC(C)C(O)C(OC5OC(C)C(O)C(OS(=O)(=O)O)C5OS(=O)(=O)O)C4OS(=O)(=O)O)C(OS(=O)(=O)O)C3OS(=O)(=O)O)C2OS(=O)(=O)O)C(OS(=O)(=O)O)C1OS(=O)(=O)O (stereo not shown)			human plasma	128 µg/mL	reference: control	APTT prolongation	1.8 fold
COc1cc2c(NC3CCN(C(C)C)CC3)cc(N3CCOCC3)nc2cc1OCCCN1CCCC1		TMT proteomics, measured: ENO1	5xFAD mouse, hippocampus	dose not given	reference: wild type	log2 fold change	0.0363
CC(C)C[C@H](NC(=O)[C@H](Cc1ccccc1)NC(=O)[C@H](C)NC(=O)[C@@H](CS)NC(=O)CNC(=O)[C@H](N)CO)C(=O)N[C@@H](CO)C(=O)N[C@H](C(=O)N[C@@H](CCCCN)C(=O)N[C@@H](CCCCN)C(=O)N[C@@H](CCC(N)=O)C(=O)N[C@@H](Cc1ccccc1)C(=O)N[C@@H](CCC(=O)O)C(=O)N[C@@H](CCC(=O)O)C(=O)N[C@@H](CC(C)C)C(=O)N[C@H](C(=O)N[C@@H](CC(C)C)C(=O)NCC(=O)N[C@@H](CCC(=O)O)C(=O)N[C@@H](Cc1ccccc1)C(=O)N[C@@H](CC(C)C)C(=O)N[C@H](CCCCN)C(=O)N[C@H](CC(C)C)C(=O)N[C@H](CC(=O)O)C(=O)N[C@@H](CCCNC(=N)N)C(=O)N[C@H](CCCNC(=N)N)C(=O)N[C@@H](CCCNC(=N)N)C(=O)N[C@@H](CCCCN)C(=O)O)[C@@H](C)O)C(C)C		immunofluorescence, immunoblot	mouse A549 xenograft, tumour	intratumoral or intravenous, dose not given		CD4 T cell level	increased
COc1ccccc1-c1ccncc1C(=O)Nc1nnc(OCc2ccc(Cl)cc2)s1			Brca1 Δ11/Δ11 Polq-/- MEFs, Mus musculus	20 µM, average of runs	reference: 0 µM	colony survival	15.4%
CN1CCC(N[C@@H]2CCc3[nH]c4c(C(N)=O)ccc(-c5ccccc5Cl)c4c3C2)CC1		organoid viability, CellTiter-Glo 3D	sample C colorectal cancer organoid, human	6 days		IC50	20 nM
CC(C)OC(=O)[C@H](CO)NCc1cc(Cl)c(OCc2cccc(-c3ccccc3)c2Br)cc1OCc1cccnc1			hPD-L1 MC-38 tumour, humanised hPD-1 C57BL/6 mouse	oral, 2.5 mg/kg × 21		tumour weight	2.36 ± 1.31 g

Structure (SMILES)	target or system	test	test system	conditions	scale	endpoint	result
COC1OC(C)C(O)C(OC2OC(C)C(O)C(OC3OC(C)C(O)C(OC4OC(C)C(O)C(OC5OC(C)C(O)C(OC6OC(C)C(O)C(OC7OC(C)C(O)C(OC8OC(C)C(O)C(OC9OC(C)C(O)C(OS(=O)(=O)O)C9OS(=O)(=O)O)C8OS(=O)(=O)O)C7OS(=O)(=O)O)C6OS(=O)(=O)O)C5OS(=O)(=O)O)C4OS(=O)(=O)O)C3OS(=O)(=O)O)C2OS(=O)(=O)O)C1OS(=O)(=O)O (stereo not shown)			human plasma	128 µg/mL	reference: control	APTT prolongation	1.3 fold
C[C@@H](Nc1c(-c2c(F)cc(C#N)cc2F)c(Cl)nc2ncnn12)C(C)(C)C		measured: detyrosinated tubulin	wild-type mice, brain	intraperitoneal, 1 mg/kg, after last dose		duration of effect	3 days
COc1ccc(S(=O)(=O)N2CCc3ccccc3C2)cc1N1CCN(C(=O)c2ccc(F)cc2C(F)(F)F)CC1		CNN cell counting, measured: tyrosine hydroxylase	rat, 6-OHDA lesion model, substantia nigra pars compacta	0.3 µg/24 h	reference: lesioned over intact side	TH-immunoreactive cell ratio	16.5 ± 3.8%
CCOC(=O)CCCCC1NCCc2cc(O)c(O)cc21 (stereo not shown)		ferrozine	cell-free	100 µM, DMSO solvent		Fe2+ chelation	91.74 ± 0.55%
CCOC(=O)c1c(NC(=O)Cn2cnc([N+](=O)[O-])n2)sc2c1CCCC2	Trypanosoma cruzi	reporter mRNA translation, inhibitor, measured: capped polyadenylated Renilla luciferase mRNA	cell-free extract	concentration not given	reference: control RNA	relative translation	99.2%
Cc1cc2cc(C(=O)N(Cc3ccc(C(F)(F)F)cn3)[C@H](C)c3ncccn3)ccc2nc1N		ELISA, measured: SDMA	mouse, HCT-116 MTAP-deleted xenograft, tumour	oral, 100 mg/kg once daily, 21 doses, 4 h after last dose	reference: vehicle	inhibition	89%
COC1OC(C)C(OC2OC(C)C(OS(=O)(=O)O)C(OC3OC(C)C(OC4OC(C)C(OS(=O)(=O)O)C(OC5OC(C)C(OC6OC(C)C(OS(=O)(=O)O)C(OC7OC(C)C(OS(=O)(=O)O)C(OS(=O)(=O)O)C7O)C6O)C(OS(=O)(=O)O)C5O)C4O)C(OS(=O)(=O)O)C3O)C2O)C(OS(=O)(=O)O)C1O (stereo not shown)			human plasma	128 µg/mL	reference: control	APTT prolongation	1.2 fold
CC(CCC(=O)NCc1ccc(C(=O)NO)cc1)C1CCC2C3C(O)CC4CC(O)CCC4(C)C3CCC12C (stereo not shown)		measured: GUDCA	PCK rat (Pkhd1 mutant), bile	oral gavage, dose not given, 5 months	reference: total bile acids	relative abundance	2.18%
COC1OC(C)C(O)C(OC2OC(C)C(O)C(OC3OC(C)C(O)C(OC4OC(C)C(O)C(OC5OC(C)C(O)C(OC6OC(C)C(O)C(OS(=O)(=O)O)C6OS(=O)(=O)O)C5OS(=O)(=O)O)C4OS(=O)(=O)O)C3OS(=O)(=O)O)C2OS(=O)(=O)O)C1OS(=O)(=O)O (stereo not shown)			human plasma	128 µg/mL	reference: control	APTT prolongation	1.2 fold
CCN(CC)CCCCCCNc1cc(OC)cc2c(C)ccnc12.Cc1ccc(S(=O)(=O)O)cc1	Trypanosoma cruzi	reporter mRNA translation, inhibitor, measured: capped polyadenylated Renilla luciferase mRNA	cell-free extract	concentration not given	reference: control RNA	relative translation	125%
COC1CN([C@H]2CC[C@H]([C@@]3(C)Oc4c(Cl)cc(C(=O)NCc5c(SC)cc(C)[nH]c5=O)c(C)c4O3)CC2)C1		RNA-seq, measured: HECTD2 mouse homolog	mouse, HT-1376 xenograft, whole blood	dose not given	reference: vehicle	log2 fold change	0.0322
CCCCNC(CCCC)CSS(=O)(=O)O (stereo not shown)			Swiss Webster mice, Schistosoma mansoni infected	100 mg/kg	reference: vehicle control	spleen weight decrease	20%
CCCCCCCCCCCCCCCC(=O)OCC(CSC[C@H](N)C(=O)N[C@@H](CO)C(=O)N[C@@H](CCCCN)C(=O)N[C@@H](CCCCN)C(=O)N[C@@H](CCCCN)C(=O)N[C@@H](CCCCN)C(=O)NCCCCCC(=O)N[C@@H](CCCCN)C(=O)N[C@@H](CC(C)C)C(=O)N[C@H](C(=O)N[C@@H](Cc1ccccc1)C(=O)N[C@@H](Cc1ccccc1)C(=O)N[C@@H](Cc1ccc2ccccc2c1)C(=O)O)C(C)C)OC(=O)CCCCCCCCCCCCCCC (stereo partly shown)			APP/PS1 mouse, cortex	local injection, dose not given, unit not given	reference: injected over adjacent side	GFAP level	0.894 and 1.77 and 0.634 and 0.893 and 0.862 and 1.36 and 1.23
COC1OC(C)C(OC2OC(C)C(O)C(OC3OC(C)C(OC4OC(C)C(O)C(OS(=O)(=O)O)C4OS(=O)(=O)O)C(OS(=O)(=O)O)C3OS(=O)(=O)O)C2OS(=O)(=O)O)C(OS(=O)(=O)O)C1OS(=O)(=O)O (stereo not shown)			human plasma	128 µg/mL	reference: control	APTT prolongation	1.5 fold
COCCOCCOCCNC(=O)Cc1cc(CC(=O)N[C@H]2C[C@H]3C(=O)Nc4cc(OCCOCCOCCOC)cc(n4)C(=O)N4CCC[C@H]4C(=O)Nc4cc(OCCOCCOCCOC)cc(n4)C(=O)N4CCC[C@H]4C(=O)Nc4cc(OCCOCCOCCOC)cc(n4)C(=O)N3C2)cc(CC(=O)N[C@H]2C[C@H]3C(=O)Nc4cc(OCCOCCOCCOC)cc(n4)C(=O)N4CCC[C@H]4C(=O)Nc4cc(OCCOCCOCCOC)cc(n4)C(=O)N4CCC[C@H]4C(=O)Nc4cc(OCCOCCOCCOC)cc(n4)C(=O)N3C2)c1		anion binding, ITC	water	298 K, stoichiometry fixed at 1.00, added: sodium chloride		ΔG	-12.3 ± 0.6 kJ mol^–1
COc1ccc(C2NCCc3cc(O)c(O)cc32)cc1 (stereo not shown)		ferrozine	cell-free	100 µM, DMSO solvent		Fe2+ chelation	98.75 ± 0.31%
CN1CCC[C@]1(C)/C=C/S(=O)(=O)NC(=O)Nc1c2c(cc3c1CCC3)CCC2			human, whole blood ex vivo	25 mg single dose, 6 h, single ascending dose, added: LPS and ATP		IL-18 inhibition	94.8%

A few entries again:
Structure (SMILES)	target or system	test	test system	conditions	scale	endpoint	result
CN1CCC(N[C@@H]2CCc3[nH]c4c(C(N)=O)ccc(-c5ccccc5Cl)c4c3C2)CC1		organoid viability, CellTiter-Glo 3D	sample C colorectal cancer organoid, human	6 days		IC50	20 nM
CCCCCCCCCCCCCCCC(=O)OCC(CSC[C@H](N)C(=O)N[C@@H](CO)C(=O)N[C@@H](CCCCN)C(=O)N[C@@H](CCCCN)C(=O)N[C@@H](CCCCN)C(=O)N[C@@H](CCCCN)C(=O)NCCCCCC(=O)N[C@@H](CCCCN)C(=O)N[C@@H](CC(C)C)C(=O)N[C@H](C(=O)N[C@@H](Cc1ccccc1)C(=O)N[C@@H](Cc1ccccc1)C(=O)N[C@@H](Cc1ccc2ccccc2c1)C(=O)O)C(C)C)OC(=O)CCCCCCCCCCCCCCC (stereo partly shown)			APP/PS1 mouse, cortex	local injection, dose not given, unit not given	reference: injected over adjacent side	GFAP level	0.894 and 1.77 and 0.634 and 0.893 and 0.862 and 1.36 and 1.23
CCCCNC(CCCC)CSS(=O)(=O)O (stereo not shown)			Swiss Webster mice, Schistosoma mansoni infected	100 mg/kg	reference: vehicle control	spleen weight decrease	20%
CC(=O)[O-].O.O.O.O.[Ni+2].[O-]c1ccc(Br)cc1C=NCCN1CCOCC1		nitric oxide scavenging		80 µM		inhibition	19.8%
Cc1cc2cc(C(=O)N(Cc3ccc(C(F)(F)F)cn3)[C@H](C)c3ncccn3)ccc2nc1N		ELISA, measured: SDMA	mouse, HCT-116 MTAP-deleted xenograft, tumour	oral, 100 mg/kg once daily, 21 doses, 4 h after last dose	reference: vehicle	inhibition	89%
